Values quoted from earlier work that unrelated publications cite.
Protocols differ between the studies behind these lines.

Compound | tested on | assay | system | setting | measurement | result
Cc1nc2ccc(CN(C)c3ccc(C(=O)N[C@@H](CCC(=O)O)C(=O)O)s3)cc2c(=O)[nH]1 | Toxoplasma gondii | parasite growth |  | concentration not given | antiparasitic activity | active
C[Si]1(C)O[Si](C)(C)O[Si](C)(C)O[Si](C)(C)O[Si](C)(C)O[Si](C)(C)O1 |  |  | octanol/air |  | intercept A of log KOA vs 1/T | -4.39
Cc1ccccc1Oc1cc(-n2c(=O)cc(C(F)(F)F)[nH]c2=O)c2ccccc2c1Cl | BCAT1 | biochemical activity |  |  | IC50 | 27 nM
CN/C(=N/CCSCc1nc[nH]c1C)NC#N | OCT2 | inhibitor |  |  | Ki | 250 nM
CN1CCN(c2cnc3c(C4CCN(C(=O)c5ccc(OC(F)(F)F)cc5N)CC4)ncnc3c2)CC1 | MAPK7 | enzyme activity |  | together with: 250 µM ATP | IC50 | 35 nM
C[Si]1(C)O[Si](C)(C)O[Si](C)(C)O[Si](C)(C)O[Si](C)(C)O1 |  |  |  | 28 °C | log KAW | 1.1
Cc1cc(C)c(-n2ccn3nc(-c4cccnc4)cc23)cc1NC(=O)c1cc(C#N)cc(S(F)(F)(F)(F)F)c1 | ABL1 non-phosphorylated | DiscoverX KINOMEscan |  |  | Kd | 38 nM
CNC(=C[N+](=O)[O-])NCCSCc1ccc(CN(C)C)o1 | Toxoplasma gondii | parasite growth |  | concentration not given, published screen | activity class | inactive
C[C@]1(c2nc3c(C(N)=O)cccc3[nH]2)CCCN1 |  |  |  | tablet vs solution | fraction absorbed | 1
Cc1ccccc1Oc1cc(-n2c(=O)cc(C(F)(F)F)[nH]c2=O)c2ccccc2c1 | BCAT1 | biochemical activity |  |  | IC50 | 6500 nM

Repeated from above:
Compound | tested on | assay | system | setting | measurement | result
C[Si]1(C)O[Si](C)(C)O[Si](C)(C)O[Si](C)(C)O[Si](C)(C)O1 |  |  |  | 28 °C | log KAW | 1.1
